Assay results collected from several papers.
Parts stem from different laboratories: compare values within a part only. Changes are numbered by the printed parent chain.

Sample 1
Target: RNA binding protein fox-1 homolog 2, RRM domain, GST-SBP tag (RBFOX2, Homo sapiens, UniProt O43251-10, residues 100-194)
Method: RNA Bind-n-Seq
Form: RNA
Sample: in vitro
Concentration: 365 nM
Notes: natural RNA segment, single round, ends assumed
Reference: no-protein control
Direction: higher = stronger binding
Target sequence (chain): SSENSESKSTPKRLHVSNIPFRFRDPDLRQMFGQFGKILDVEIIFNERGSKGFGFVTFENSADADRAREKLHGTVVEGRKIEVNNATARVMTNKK
Oligonucleotide	RBNS enrichment (R)
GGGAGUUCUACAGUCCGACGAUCUCUUUUUUCAAGGCUUAAAUUUUUUUUUUUCAUGACCUUCUGGAAGAAGCAAUAGUAGCAAUCUUAAAUUUGACUCAUAGGGGAGAUAAGCGUGUGUCUUUUUAACUUAGUGGAAUUCUCGGGUGCCAA	0.788
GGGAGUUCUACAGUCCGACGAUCCCAGCAUUCCCGGGUGGGCCCAGACCCCAUCACCAAGACUGGCCACCCGCUGCGUGUGUGUGCGCGCGCGUGUACGUGUGGCCCCACAUCCGCCGCCUUCCACGCUAGGAUGGAAUUCUCGGGUGCCAA	0.54
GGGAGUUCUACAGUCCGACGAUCGCCCGUGUGUACAGUCUGUGGAGUUUAGCUUAACGGGCAGGGCCCACAUGUACAGUGUCUGUAUAUAAAUGUGCUGUAUCUGUUCAUUUCUAUGACUGCAGGGUUUUUUUUGGAAUUCUCGGGUGCCAA	0.405
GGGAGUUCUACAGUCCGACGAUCACACGUCCUUUAUUAGAGAUGACCGAGGGGAAGCAGCUGCUGUUUAGCUGACCCCCCACAUGAGAAGACGUUUCUUGAAAUGAGCCCCGGGGGCUCUGGGGUUAGAGCCUUGGAAUUCUCGGGUGCCAA	0.281
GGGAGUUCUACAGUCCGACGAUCUGGCACCAGCACCUUAGAAGUUGUUGGCAGAAGGCACUUAAACUGUGGGAGAAGUGUGCACACCUUUGAGUCCCUUCCCUCAAGGUUAAAGCUCCUGUCAGACUCUCAGAUGGAAUUCUCGGGUGCCAA	0.305
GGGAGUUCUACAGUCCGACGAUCAAGGCCAAGUACCCCAACUCUCCCCGACGCUGCUGAGCCCUUCCCUCCCCUAAUCUGAGAAGUCAGCCUCUUGGCUCCUCAGGCCACCAUUUAGGCCUGACUGGGGUAAGUGGAAUUCUCGGGUGCCAA	0.316
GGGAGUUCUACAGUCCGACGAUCGGGGGCACAGUUGUUGUUUGGUAUCCAGGCAGUUGAGCUGAGGCAUUCAUAGGAUGUCUUAGAAGACAUUGUGGUAUGGUGCCACCUCUGACCACACAGCCUCUGCCUCAUGGAAUUCUCGGGUGCCAA	0.347
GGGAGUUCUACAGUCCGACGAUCAUCCACUGAGCACUGUAAUACAUUUGACAGGAUGGCUGCAUGAAACUGUCCAGCAUUUUUCUGUCGUUUCCCCCCCACCCCAAAUCCUUUUUUUCUCUUCUUUUUUAAAAUGGAAUUCUCGGGUGCCAA	1.36

Sample 2
Target: ABI1, truncated, D143A, DHFR fusion (Arabidopsis thaliana)
Method: DHFR PCA, deep sequencing
Sample: yeast
Notes: methotrexate growth selection, single substitutions
With: (+)-ABA 58 µM
Reference: wild-type fitted maximum
Direction: higher = stronger binding
Starting sequence: PYL1, truncated, DHFR fusion (Arabidopsis thaliana); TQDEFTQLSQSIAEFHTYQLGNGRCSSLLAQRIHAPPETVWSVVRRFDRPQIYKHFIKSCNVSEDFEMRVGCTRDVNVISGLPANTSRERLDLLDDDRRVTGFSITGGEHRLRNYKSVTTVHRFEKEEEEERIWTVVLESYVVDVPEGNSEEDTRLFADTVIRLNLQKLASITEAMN; partner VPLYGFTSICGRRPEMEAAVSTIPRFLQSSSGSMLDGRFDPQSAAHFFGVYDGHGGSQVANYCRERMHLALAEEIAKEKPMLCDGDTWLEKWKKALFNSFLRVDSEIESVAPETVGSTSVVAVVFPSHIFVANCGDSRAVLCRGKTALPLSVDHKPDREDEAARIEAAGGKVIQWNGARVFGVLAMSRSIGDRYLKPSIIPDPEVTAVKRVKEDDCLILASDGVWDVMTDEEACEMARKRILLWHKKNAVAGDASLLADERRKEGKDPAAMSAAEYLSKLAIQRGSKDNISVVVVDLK
Substitution	relative binding score [%]
R24K	92
E127G	86.5
F103N	-6.39
T120S	99
R24L	76.5
N77L	84
E64D	88.5
A13M	76.7
M176W	77.7
A170Q	78.2
A175E	81.9
T1A	91.3
C60G	-2.05
R74T	3.83
N22W	82.1
T6M	96.6
Y141R	-8.05
V43E	3.01
L156V	83.4
A158D	8.42
Y141S	-1.09
G81R	5.5

Sample 3
Target: Sal-like protein 4, full length isoform B (SALL4, Homo sapiens, UniProt Q9UJQ4-2, residues 1-616)
Method: universal PBM
Form: double-stranded DNA, one strand shown
Sample: in vitro
Concentration: not given
Notes: 8-mer, flanks averaged, mean of replicates
Direction: higher = stronger binding
Target sequence (chain): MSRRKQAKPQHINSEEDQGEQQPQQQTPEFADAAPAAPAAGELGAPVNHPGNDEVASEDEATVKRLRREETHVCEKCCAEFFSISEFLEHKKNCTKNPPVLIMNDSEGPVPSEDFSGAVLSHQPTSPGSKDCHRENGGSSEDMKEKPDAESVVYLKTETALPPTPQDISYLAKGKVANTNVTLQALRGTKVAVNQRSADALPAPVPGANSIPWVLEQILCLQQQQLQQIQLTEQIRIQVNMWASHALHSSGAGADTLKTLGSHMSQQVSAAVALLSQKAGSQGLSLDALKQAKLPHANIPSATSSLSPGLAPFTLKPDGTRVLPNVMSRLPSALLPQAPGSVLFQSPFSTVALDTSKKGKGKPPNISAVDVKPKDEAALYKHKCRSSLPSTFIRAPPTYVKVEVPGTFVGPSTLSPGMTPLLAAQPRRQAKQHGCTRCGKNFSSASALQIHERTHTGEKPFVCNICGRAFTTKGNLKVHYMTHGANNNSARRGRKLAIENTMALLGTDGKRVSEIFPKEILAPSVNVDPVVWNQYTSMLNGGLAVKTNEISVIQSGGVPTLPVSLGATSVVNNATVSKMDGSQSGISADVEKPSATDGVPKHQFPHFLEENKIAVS
Oligonucleotide	E-score
CTCACCTC	-0.319
ACAGAGAG	-0.121
AAGAGGAG	-0.223
ACCCTGCA	-7e-05
ACGTCATC	-0.108
CATCACCC	-0.2
CGAGCCAG	-0.118
TCTAGCAA	0.046
CAGCCAGG	-0.255
CCGTGGTA	-0.0925
GCGATCGC	-0.193
AACTGCGG	-0.118
CATATTAA	0.417
GAGGAGTA	-0.0329
CCTCTGCG	-0.311
GACAGACA	0.0551
TCGACAAA	0.231
ACGCCGGC	-0.326
GGCAGTGA	-0.236
AGGGCTCG	-0.211
TGCGTTAA	0.117
ATTGTTGA	0.227
ACAAGGTC	-0.0634
GACATAAA	0.275
AGACAGAC	0.0152

Sample 4
Target: CCNB2, cyclin fold, Cln2 fusion (human)
Method: yeast growth competition, sequencing
Sample: yeast
Notes: weak parent motif
Reference: not given
Direction: higher = stronger binding
Starting sequence: INSM1 docking peptide (human); PKAIRKLHFEDEV; partner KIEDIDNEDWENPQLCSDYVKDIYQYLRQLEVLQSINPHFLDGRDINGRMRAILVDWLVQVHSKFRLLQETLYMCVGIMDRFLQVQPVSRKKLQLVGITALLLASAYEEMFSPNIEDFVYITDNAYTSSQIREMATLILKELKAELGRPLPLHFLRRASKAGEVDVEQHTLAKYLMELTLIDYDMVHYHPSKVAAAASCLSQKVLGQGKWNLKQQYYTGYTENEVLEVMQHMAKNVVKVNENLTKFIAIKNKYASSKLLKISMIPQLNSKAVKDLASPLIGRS
Substitution	normalised enrichment score
F9Q	0.0262
K6Q	0.647
I4V	-0.0842
K6T	0.203
H8M	0.00919
F9V	0.216
H8A	0.403
A3S	0.414
H8F	-0.0659
E10R	0.33
F9M	-0.0238
K6A	0.0474
K2V	0.0676
D11V	0.283
H8K	0.338
I4Q	0.445
A3Y	0.473
I4S	0.276

Repeated from above (sample 1):
Oligonucleotide	RBNS enrichment (R)
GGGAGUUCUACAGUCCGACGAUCUCUUUUUUCAAGGCUUAAAUUUUUUUUUUUCAUGACCUUCUGGAAGAAGCAAUAGUAGCAAUCUUAAAUUUGACUCAUAGGGGAGAUAAGCGUGUGUCUUUUUAACUUAGUGGAAUUCUCGGGUGCCAA	0.788
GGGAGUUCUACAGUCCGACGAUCCCAGCAUUCCCGGGUGGGCCCAGACCCCAUCACCAAGACUGGCCACCCGCUGCGUGUGUGUGCGCGCGCGUGUACGUGUGGCCCCACAUCCGCCGCCUUCCACGCUAGGAUGGAAUUCUCGGGUGCCAA	0.54
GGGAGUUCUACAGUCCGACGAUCGCCCGUGUGUACAGUCUGUGGAGUUUAGCUUAACGGGCAGGGCCCACAUGUACAGUGUCUGUAUAUAAAUGUGCUGUAUCUGUUCAUUUCUAUGACUGCAGGGUUUUUUUUGGAAUUCUCGGGUGCCAA	0.405
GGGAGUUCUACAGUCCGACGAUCACACGUCCUUUAUUAGAGAUGACCGAGGGGAAGCAGCUGCUGUUUAGCUGACCCCCCACAUGAGAAGACGUUUCUUGAAAUGAGCCCCGGGGGCUCUGGGGUUAGAGCCUUGGAAUUCUCGGGUGCCAA	0.281
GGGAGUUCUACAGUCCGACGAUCUGGCACCAGCACCUUAGAAGUUGUUGGCAGAAGGCACUUAAACUGUGGGAGAAGUGUGCACACCUUUGAGUCCCUUCCCUCAAGGUUAAAGCUCCUGUCAGACUCUCAGAUGGAAUUCUCGGGUGCCAA	0.305
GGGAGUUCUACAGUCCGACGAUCAAGGCCAAGUACCCCAACUCUCCCCGACGCUGCUGAGCCCUUCCCUCCCCUAAUCUGAGAAGUCAGCCUCUUGGCUCCUCAGGCCACCAUUUAGGCCUGACUGGGGUAAGUGGAAUUCUCGGGUGCCAA	0.316
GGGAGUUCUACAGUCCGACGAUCGGGGGCACAGUUGUUGUUUGGUAUCCAGGCAGUUGAGCUGAGGCAUUCAUAGGAUGUCUUAGAAGACAUUGUGGUAUGGUGCCACCUCUGACCACACAGCCUCUGCCUCAUGGAAUUCUCGGGUGCCAA	0.347
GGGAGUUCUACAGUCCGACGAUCAUCCACUGAGCACUGUAAUACAUUUGACAGGAUGGCUGCAUGAAACUGUCCAGCAUUUUUCUGUCGUUUCCCCCCCACCCCAAAUCCUUUUUUUCUCUUCUUUUUUAAAAUGGAAUUCUCGGGUGCCAA	1.36
